Experimental data gathered from unrelated publications.
Lines come from different studies, so protocols differ. Numbers after ± are the reported error.

The IC50 of [Co+2].[O-]c1c(I)cc(I)c2cccnc12.[O-]c1c(I)cc(I)c2cccnc12.c1cnc2c(c1)ccc1cccnc12 is reported as 31.5 µM (BEL-7404; cell growth or viability, MTT; 48 h).
With CCOc1cncc(-c2ccc(NC(=O)C3(c4ccnc(NS(=O)(=O)C5CC5)n4)CCOCC3)nc2)n1 the IC50 was 2.23 µM (A 172; cell growth or viability, ATP luminescence; 72 h).
The IC50 of CNS(=O)(=O)Nc1nccc(Cc2c(C)c3ccc(Oc4ncccc4F)cc3oc2=O)c1F is reported as over 1 µM (MOLM16; cell viability; 7 days).
The IC50 of CCN(C(=O)c1cc(F)ccc1Oc1nncnc1N1CCC2(C1)CN(C(CCCN(C)CCOC)C(C)C)C2)C(C)C (centres unmarked) is reported as over 3 µM (OCI-AML-3 (NPM1c); inhibitor, QuantiGene multiplex, item: MEIS1 mRNA).
For Cn1ncc(-c2ccc3c(=O)[nH]nc(CN)c3c2)c1-c1c(F)c(Cl)cc(OC2CC2)c1C#N, the IC50 was 0.05 µM (A101D; cell viability, inhibitor, CellTiter-Glo; 120 h, baseline-subtracted).
The IC50 of O=C(O)c1ccc2c3n(nc2c1)[C@@H]1[C@H](CO3)N(CC2CC2)[C@@]2(C(=O)Nc3cc(Cl)ccc32)[C@H]1c1cccc(Cl)c1F is reported as 0.163 µM (SJSA-1; cell growth or viability, ATP luminescence).
For Cc1ccc([N+](=O)[O-])cc1S(=O)(=O)N(C)/N=C/c1cnc2ccc(Br)cn12, the IC50 was 0.059 µM (OVCAR-8; cell viability, MTS).
With [BH3-][P+]1(c2ccccc2)CCC(=O)CC1 the IC50 was over 100 µM (HaCaT; cell growth or viability, MTT; 72 h).
With Cc1nc2ccc(Br)cc2c(=O)n1N the IC50 was 1050 ± 64 µM (LoVo; cytotoxicity, LDH release; 24 h, 50% viability reduction).
COc1ccc(CNC[C@](O)(COCc2ccccc2)[C@@H]2CC[C@@H](C)C[C@H]2OCc2ccccc2)cc1 has an IC50 of 2.51 µM (A2780; cell growth or viability, MTT; 72 h).
The IC50 of CCCC(=O)Oc1c(C)c(OC)c2c(c1C)OC(=O)[C@@H](CC)[C@]2(O)/C=C/c1ccccc1 (racemic) is reported as over 50 µM (HT-29; cell growth or viability, SRB; 72 h).
CC(C)c1ccc(N(C)c2ccc3c(c2)OCC[C@H]3CNc2cnccc2C(=O)O)cc1 has an IC50 of at least 10 µM (C2BBe1; cell growth or viability, ATP luminescence; 7 days).
The IC50 of C=CC(=O)N1CCC[C@@H](n2nc(-c3ccc(Oc4ccccc4)cc3)c3c(N)ncnc32)C1 is reported as 0.186 µM (TMD8 ABBV-105-resistant; cell viability, CellTiter-Glo; 4 days, 48 h drug withdrawal).
CC(=O)[O][Pt]([NH2])([NH2])([Cl])([Cl])[O]C(=O)CCCc1ccccc1 has an IC50 of 4.02 µM (LoVo; cell growth or viability, MTT; 72 h).
The IC50 of Cc1ccc2c(Cl)cc(Cl)c([O-])c2n1.Cc1ccc2c(Cl)cc(Cl)c([O-])c2n1.[Co+2].c1ccc2nc3c4cccnc4c4ncccc4c3nc2c1 is reported as 0.25 µM (BEL-7404; cell growth or viability, MTT; 48 h).
CN1CCC(N[C@@H]2CCc3[nH]c4c(C(N)=O)ccc(-c5ccccc5Cl)c4c3C2)CC1 has an IC50 of 0.039 µM (MINO; cell growth or viability).
The IC50 of CO[C@@H](C[C@H]1C(C)=CC[C@@H]2[C@]3(C)C[C@H](O[C@@H]4O[C@@H](C)[C@H](O)[C@@H](O)[C@H]4O)[C@@H](O)C(C)(C)[C@H]3CC[C@]21C)[C@H](N)C(=O)O is reported as over 10 µM (3T3 fibroblasts; cell viability, CCK-8; 72 h).
